# Assay results collected from several papers.
# Compare with care: the assays were run in different laboratories. ± marks the error that the study gave. Bridge positions count the residues as written; N and C are the ends. Ends that are not written are not given here. * marks the point of attachment.
# Organism: Escherichia coli
Molecule,test,system,conditions,scale,endpoint,result
N=C(N)c1ccc(OCCCCCOc2ccc(C(=N)N)cc2)cc1,checkerboard,BW25113 mcr-1 plasmid,"unit not given, together with: rifampicin",lower = stronger synergy,FICI,≤ 0.25
"Myristoyl-SCLPKEEQIGKSTRGRKCRRKK (disulfide 2-18 (inferred)) (N-myristoyl, disulfide; Myristoyl = CCCCCCCCCCCCCC(=O)*)",,K-12 sample A (CGSC sample B),"MBC, 2 h, pH 7.4, 37 °C, together with: E. coli K-235 LPS at peptide:LPS 1:5 w/w",,antibacterial activity,inhibited
"LLGDFFRKSKEKIGKEFKRIVQRIKDFLRNLVPRTESGY (LL-37-Gly-Tyr; also: 125I label, place not given here)",,peptide,"5 µg/mL, 20 min, 22 °C",,binding density,1.4 ± 0.1 fg/µm²
CC(C)[n+]1cc(-c2ccc3ccccc3n2)cc2ccccc21,lacZ reporter expression,VirF-independent lacZ control,"3 h, 37 °C, 6.2% DMSO, together with: 1 mM IPTG",,IC50,> 100000 nM
CC(=O)Oc1cccc(C(=O)N[C@H]2COC(=O)[C@@H](NC(=O)c3cccc(OC(C)=O)c3OC(C)=O)[C@H](CCCNC(=O)CCSSCCCCCCCCCCC(=O)NC[C@H](NC(=O)[C@H](CCCCN)NC(=O)N[C@H](C(=O)O)C(C)C)C(=O)NCCCN[C@@H](C[C@H]3O[C@@H](n4ccc(=O)[nH]c4=O)[C@H](O)[C@@H]3O)C(=O)O)OC(=O)[C@@H](NC(=O)c3cccc(OC(C)=O)c3OC(C)=O)COC2=O)c1OC(C)=O,"bacterial growth, optical density",ΔtolC,,,IC50,2000 ± 1700 nM
GIGKWLHSAKKFGKAFVGEIMNS-NH2 (C-amide),"bacterial growth, broth microdilution","peptide, NCTC 9001, Mueller-Hinton broth","overnight, 37 °C",,MIC50,4.21 ± 1.29 µg/mL
CC[C@H](C)[C@H](N)C(=O)N[C@@H](CC(C)C)C(=O)N1CCC[C@H]1C(=O)N[C@@H](Cc1c[nH]c2ccccc12)C(=O)N[C@@H](CCCCN)C(=O)N[C@@H](Cc1c[nH]c2ccccc12)C(=O)N1CCC[C@H]1C(=O)N[C@@H](Cc1c[nH]c2ccccc12)C(=O)N[C@@H](Cc1c[nH]c2ccccc12)C(=O)N1CCC[C@H]1C(=O)N[C@@H](Cc1c[nH]c2ccccc12)C(=O)N[C@@H](CCCNC(=N)N)C(=O)N[C@@H](CCCNC(=N)N)C(N)=O,broth microdilution,,"18 h, 30 clinical isolates",,MIC90,4 µg/mL
CC(C)C[C@H](NC(=O)[C@H](C)NC(=O)[C@H](CC(C)C)NC(=O)[C@H](CCCCN)NC(=O)[C@H](CC(C)C)NC(=O)[C@H](CCCCN)NC(=O)[C@@H](N)CCCCN)C(=O)N[C@@H](C)C(=O)N[C@@H](CCCCN)C(=O)N[C@@H](CC(C)C)C(=O)N[C@@H](C)C(=O)N1CCC[C@H]1C(=O)N[C@@H](CC(C)C)C(=O)N[C@@H](Cc1c[nH]c2ccccc12)C(=O)N[C@@H](CCCCN)C(=O)N[C@@H](C)C(=O)N[C@@H](CC(C)C)C(=O)N[C@@H](C)C(=O)N[C@@H](CC(C)C)C(=O)N[C@@H](CCCCN)C(=O)N[C@@H](CC(C)C)C(=O)N[C@@H](CCCCN)C(=O)N[C@@H](CCCCN)C(=O)N[C@@H](C)C(N)=O,broth microdilution,NCTC 9001,"overnight, 37 °C",,MIC50,0.48 ± 0.2 µM
CC(=O)NC(C)(C)C(=O)N1CCC[C@H]1C(=O)NC(C)(C)C(=O)N[C@@H](C)C(=O)NC(C)(C)C(=O)N[C@@H](C)C(=O)N[C@@H](CCC(N)=O)C(=O)NC(C)(C)C(=O)N[C@H](C(=O)NC(C)(C)C(=O)NCC(=O)N[C@@H](CC(C)C)C(=O)NC(C)(C)C(=O)N1CCC[C@H]1C(=O)N[C@H](C(=O)NC(C)(C)C(=O)NC(C)(C)C(=O)N[C@@H](CCC(=O)O)C(=O)N[C@@H](CCC(N)=O)C(=O)N[C@H](CO)Cc1ccccc1)C(C)C)C(C)C,,K-12 sample A (CGSC sample B),,,MBC,10 µM
CC(C)C[C@H](NC(=O)[C@H](C)NC(=O)[C@H](CCCCN)NC(=O)[C@H](C)NC(=O)[C@H](CC(C)C)NC(=O)[C@H](CCCCN)NC(=O)[C@H](CC(C)C)NC(=O)[C@H](Cc1c[nH]c2ccccc12)NC(=O)[C@H](CC(C)C)NC(=O)[C@H](CC(C)C)NC(=O)[C@H](C)NC(=O)[C@H](CC(C)C)NC(=O)[C@H](CC(C)C)NC(=O)[C@H](CCCCN)NC(=O)[C@@H]1CCCN1C(=O)[C@H](C)NC(=O)[C@H](CCCCN)NC(=O)[C@H](C)NC(=O)[C@H](CC(C)C)NC(=O)[C@H](CCCCN)NC(=O)[C@@H](N)CCCCN)C(=O)N[C@@H](CCCCN)C(=O)N[C@@H](CCCCN)C(=O)N[C@@H](C)C(N)=O,broth microdilution,NCTC 9001,"overnight, 37 °C",,MIC50,2.97 ± 0.15 µM
CC[C@H](C)[C@H](NC(=O)[C@H](Cc1c[nH]c2ccccc12)NC(=O)[C@@H](N)CCCNC(=N)N)C(=O)N[C@@H](CCCNC(=N)N)C(=O)N[C@@H](Cc1c[nH]c2ccccc12)C(=O)N[C@H](C(=O)N[C@@H](Cc1c[nH]c2ccccc12)C(=O)N[C@@H](CCCNC(=N)N)C(=O)N[C@@H](CCCCN)C(=O)N[C@@H](CCCCN)C(=O)N[C@@H](CC(C)C)C(=O)N[C@@H](CCCNC(=N)N)C(N)=O)C(C)C,,ATCC 25922,"1 h, 37 °C, dividing cells in LB",,MIC,50 to 100 µg/mL
CC(C)C[C@H](NC(=O)[C@H](C)NC(=O)[C@H](CCCCN)NC(=O)[C@H](Cc1c[nH]c2ccccc12)NC(=O)[C@H](CC(C)C)NC(=O)[C@H](CC(C)C)NC(=O)[C@H](C)NC(=O)[C@@H]1CCCN1C(=O)[C@H](CCCCN)NC(=O)[C@H](C)NC(=O)[C@H](CC(C)C)NC(=O)[C@H](C)NC(=O)[C@H](CC(C)C)NC(=O)[C@H](CCCCN)NC(=O)[C@H](CC(C)C)NC(=O)[C@H](CCCCN)NC(=O)[C@@H](N)CCCCN)C(=O)N[C@@H](C)C(=O)N[C@@H](CC(C)C)C(=O)N[C@@H](CCCCN)C(=O)N[C@@H](CC(C)C)C(=O)N[C@@H](CCCCN)C(=O)N[C@@H](CCCCN)C(=O)N[C@@H](C)C(N)=O,broth microdilution,NCTC 9001,"overnight, 37 °C",,MIC50,2.22 ± 0.63 µM
CC[C@H](C)[C@H](NC(=O)CNC(=O)[C@H](CC(=O)O)NC(=O)[C@H](CCCNC(=N)N)NC(=O)[C@@H](NC(=O)[C@H](CC(N)=O)NC(=O)[C@H](CCC(N)=O)NC(=O)CNC(=O)[C@@H](NC(=O)[C@H](CCCCN)NC(=O)[C@H](CCC(=O)O)NC(=O)[C@@H](NC(=O)[C@H](CCCCN)NC(=O)[C@H](CCCCN)NC(=O)[C@H](Cc1ccccc1)NC(=O)[C@H](CC(C)C)NC(=O)[C@H](CCCCN)NC(=O)[C@H](Cc1c[nH]c2ccccc12)NC(=O)[C@@H](N)CCCCN)[C@@H](C)CC)C(C)C)[C@@H](C)CC)C(=O)N[C@H](C(=O)N[C@@H](CCCCN)C(=O)N[C@@H](C)C(=O)NCC(=O)N1CCC[C@H]1C(=O)N[C@@H](C)C(=O)N[C@H](C(=O)N[C@@H](C)C(=O)N[C@H](C(=O)N[C@H](C(=O)NCC(=O)N[C@@H](CCC(N)=O)C(=O)N[C@@H](C)C(=O)N[C@H](C(=O)N[C@@H](CCC(N)=O)C(=O)N[C@H](C(=O)N[C@@H](C)C(=O)N[C@@H](CCCCN)C(N)=O)[C@@H](C)CC)[C@@H](C)O)C(C)C)C(C)C)C(C)C)[C@@H](C)CC,,DH5α,"24 h, 37 °C",,MBC,20 µM
CC(C)C[C@H](NC(=O)[C@H](C)NC(=O)[C@H](CC(C)C)NC(=O)[C@H](CCCCN)NC(=O)[C@H](CCCCN)NC(=O)[C@H](Cc1c[nH]c2ccccc12)NC(=O)[C@H](CC(C)C)NC(=O)[C@H](CC(C)C)NC(=O)[C@H](C)NC(=O)[C@H](CC(C)C)NC(=O)[C@H](CCCCN)NC(=O)[C@H](CCCCN)NC(=O)[C@H](CC(C)C)NC(=O)[C@H](C)NC(=O)[C@H](CC(C)C)NC(=O)[C@H](C)NC(=O)[C@H](CC(C)C)NC(=O)[C@H](CCCCN)NC(=O)[C@@H](N)CCCCN)C(=O)N[C@@H](C)C(=O)N[C@@H](CC(C)C)C(=O)N[C@@H](CCCCN)C(=O)N[C@@H](CCCCN)C(=O)N[C@@H](C)C(N)=O,broth microdilution,NCTC 9001,"overnight, 37 °C",,MIC50,2.95 ± 0.06 µM
O=C(O)c1cn(C2CC2)c2cc(N3CCNCC3)c(F)cc2c1=O,,wild type,evolution over 160 generations,reference: ancestor strain,MIC fold increase,390 fold

# Excerpt of the above:
Molecule,test,system,conditions,scale,endpoint,result
CC(C)C[C@H](NC(=O)[C@H](C)NC(=O)[C@H](CC(C)C)NC(=O)[C@H](CCCCN)NC(=O)[C@H](CCCCN)NC(=O)[C@H](Cc1c[nH]c2ccccc12)NC(=O)[C@H](CC(C)C)NC(=O)[C@H](CC(C)C)NC(=O)[C@H](C)NC(=O)[C@H](CC(C)C)NC(=O)[C@H](CCCCN)NC(=O)[C@H](CCCCN)NC(=O)[C@H](CC(C)C)NC(=O)[C@H](C)NC(=O)[C@H](CC(C)C)NC(=O)[C@H](C)NC(=O)[C@H](CC(C)C)NC(=O)[C@H](CCCCN)NC(=O)[C@@H](N)CCCCN)C(=O)N[C@@H](C)C(=O)N[C@@H](CC(C)C)C(=O)N[C@@H](CCCCN)C(=O)N[C@@H](CCCCN)C(=O)N[C@@H](C)C(N)=O,broth microdilution,NCTC 9001,"overnight, 37 °C",,MIC50,2.95 ± 0.06 µM
